Measured values of several laboratories.
Protocols differ between the studies behind these lines. Values joined by “and” are separate records of one study, mostly repeats; a detail may differ. ± gives the spread as reported. In brackets after ≈: the same amount, converted by molar mass.

The remaining activity of `CCCc1cnc(C)nc1N1C[C@@H]2NC(=O)CN(CCOC)C(=O)CCc3ccc(OC)c(c3)Oc3cccc(c3)CO[C@H]2C1` is reported as 51% (Lassa mammarenavirus; viral replication; Huh-7; 10 µM, 72 h).
`O=C(Nc1nc(-c2ccccc2)cs1)C1CCCC1` gave an MIC of over 20 µM (Histoplasma capsulatum; microbial growth).
`CCc1c(C(=O)C(N)=O)c2c(OCC(=O)O)cccc2n1Cc1ccccc1` gave a viability difference of -62% (Daboia russelii; C2C12; 100 µM, together with: Daboia russelii venom KA; relative to: venom alone).
`O=C1c2c(O)c(=O)ccn2N([C@@H]2c3ccccc3SCc3c2ccc(F)c3F)[C@@H]2COCCN12` has an EC50 of 0.0004 ± 5e-05 µM (Influenza A virus; viral replication; A(H5N8) A/gull/Delaware/486/2018; mean).
With `CCc1ccccc1N1CC(c2nc3ccccc3n2CCCCOc2ccccc2OC)CC1=O` (stereo not drawn) the efficacy was 39.3% (SARS-CoV-2; cytopathic effect; USA_WA1/2020; round 1, 5-point).
For `O=c1ccn([C@@H]2O[C@](F)(CO)[C@@H](O)[C@H]2O)c(=O)[nH]1`, viral replication read “inhibited” (Sin Nombre virus; concentration not given).
`O[C@](Cn1cncn1)(Cn1cnc(/C=C\c2ccc(OCC(F)(F)C(F)F)cc2)n1)c1ccc(F)cc1F` has an EC50 of over 100 µM (SARS-CoV-2; viral replication, high-content imaging screen; BetaCov/Belgium/GHB-03021/2020; cell-based).
`O=C(Nc1ncc(CC2CCCCC2)s1)c1ccccc1` has an MIC of 10 µM (≈ 3 µg/mL) (Histoplasma capsulatum; microbial growth).
`(S)-(+)-niguldipine hydrochloride` has a maximal inhibition of 92% (Ebola virus; virus-like particle entry; HeLa; concentration not given).
With `COc1cc2c(cc1OC)C(c1cccc(Cl)c1)=NN=C(C)C2` the EC50 was over 100 µM (SARS-CoV-2; viral replication, high-content imaging screen; cell-based).
With `O=C(/C=C/c1ccc(O)c(O)c1/C=C/c1ccc(O)c(O)c1)O[C@H](Cc1ccc(O)c(O)c1)C(=O)O` the mean inhibition was 0% (SARS-CoV-2; viral cytopathic effect; Vero E6; 6.25 µM).
With `COc1cc(NC(=O)Cc2cnc3c(C)cccn23)ccc1NC(=O)CC(C)C` the remaining activity was 32% (Lassa mammarenavirus; viral replication; Huh-7; 10 µM, 72 h).
`COc1cc2c(cc1OCC1CC1)NC(=O)C21CCN(c2cc(NC3CC3)ncn2)CC1` has an efficacy of 71.9% (SARS-CoV-2; cytopathic effect; USA_WA1/2020; round 1, 5-point).
For `NCCCCCc1cnc[nH]1`, the selectivity index was 1 (Ebola virus Zaire; pseudovirus entry; A549; relative to: CC50 over IC50).
For `CN(C)c1ccc(-c2nc(-c3cccs3)c(-c3cccs3)[nH]2)cc1`, the maximum response was 56.4% (SARS-CoV-2; cytopathic effect; USA_WA1/2020; retest, 8-point, duplicates).
For `COc1ccc2cc(C3CN(C(=O)c4ccc[nH]4)CCO3)ccc2c1` (stereo not drawn), the remaining activity was 42% (Lassa mammarenavirus; viral replication; Huh-7; 10 µM, 72 h).
`c1ccc(C(O[C@@H]2CCCN(CCc3ccc4c(c3)OCO4)C2)c2ccccc2)cc1` gave an EC50 of over 100 µM (SARS-CoV-2; viral replication, GFP plate reader screen; cell-based).
`CNc1nc(N)ncc1-c1cn([C@@H]2O[C@H](CO)[C@@H](O)[C@@]2(C)F)cn1`: antiviral activity “inactive” (Nipah virus; concentration not given).
The remaining activity of `O=C(c1cnn[nH]1)N1CCC(n2c(=O)[nH]c3ccccc32)CC1` is reported as 43% (Lassa mammarenavirus; viral replication; Huh-7; 10 µM, 72 h).
`Cc1ccc2nc(Cl)c3cc(C(=O)NCCCN4CCC(C)CC4)sc3c2c1` has a maximum response of 88.7% (SARS-CoV-2; cytopathic effect; USA_WA1/2020; retest, 8-point, duplicates).
`CN1CCN(C(=O)c2cc3cc(Cl)ccc3[nH]2)CC1` gave a selectivity index of 6.9 (Marburg virus; pseudovirus entry; A549; relative to: CC50 over IC50).
The maximum response of `O=C(CCc1ccc(CC2CCN(Cc3c[nH]c4ccccc34)CC2)cc1)N1CCCC1` is reported as 31.8% (SARS-CoV-2; cytopathic effect; USA_WA1/2020; round 2, 5-point).
`Nc1ncnc2c([C@@H]3N[C@H](CO)[C@@H](O)[C@H]3O)c[nH]c12` gave an antigen-positive cells of 1.4% and 10.6% (Marburg virus; antibody staining; HeLa, Musoke; 6.3 µM).
`CCN(CC)CCNC(=O)c1ccc(NS(C)(=O)=O)cc1` has an EC50 of over 100 µM (SARS-CoV-2; viral replication, high-content imaging screen; cell-based).
For `Cc1nc2n(n1)CC(=O)N[C@@H](C(C)C)CN(C(=O)C1(C)CC1)CC(=O)N[C@@H](CC(C)C)c1nc(cs1)C(=O)N[C@H]2Cc1ccccc1`, the remaining activity was 99% (Lassa mammarenavirus; viral replication; Huh-7; 10 µM, 72 h).
With `O=C(NCC1CCOC2(CCN(C(=O)C3(c4ccccc4)CCCC3)CC2)C1)C1CC1` (stereo not drawn) the EC50 was over 39.8 µM (Venezuelan equine encephalitis virus; viral replication).
The MIC50 of `Cn1c(=O)ccc2ccc(F)c(CCNC[C@H]3CN(c4cnc5c(n4)NC(=O)CO5)C(=O)O3)c21` is reported as under 0.015 µg/mL (Bacillus anthracis; microbial growth).
With `CN(C)c1cccc(C(=O)NCC2CCN(c3cc(-c4ccc(Cl)cc4)n[nH]3)CC2)c1` the AC50 was 12.6 µM (SARS-CoV-2; cytopathic effect, cell-based CPE; USA_WA1/2020; round 2, 5-point dilution).
The MIC90 of `CCCCCCCCCCCCCCNC(=O)CP(=O)(O)O` is reported as 6.25 µg/mL (≈ 18.6 µM) (Bacillus anthracis; Ames/IA).
`O=C(O)c1n[nH]cc1CN1CCCN(Cc2ccccc2F)CC1` gave a remaining activity of 29% (Lassa mammarenavirus; viral replication; Huh-7; 10 µM, 72 h).
For `O=[N+]([O-])c1ccc(C2=[N+]([O-])c3ccccc3N3CCN=C23)cc1`, the MIC90 was 0.125 µg/mL (≈ 0.405 µM) (Clostridium perfringens).
The inhibition of `NCC1CCOC2(CCN(C(=O)C3(c4ccccc4)CCCC3)CC2)C1` (stereo not drawn) is reported as 40% (Venezuelan equine encephalitis virus; viral replication; 40 µM).
`CO/C1=C\C(C)=C\[C@@H](C)[C@@H](O)[C@@H](C)C/C(C)=C/C=C/[C@H](OC)[C@@H]([C@@H](C)[C@@H](O)[C@H](C)[C@@]2(O)C[C@@H](O)[C@H](C)[C@@H](C(C)C)O2)OC1=O` — result for “EBOV-GFP infection potency change”: “no effect” (Ebola virus; viral replication; HeLa ATP6V0a2 knockdown; concentration not given; relative to: non-knockdown cells).
`CNC(=O)[C@@H](NC(=O)[C@H](CC(C)C)[C@H](O)C(=O)NO)C(C)(C)C` gave a viability difference of -17.8% (Daboia russelii; C2C12; 100 µM, together with: Daboia russelii venom RJ; relative to: venom alone).
With `CNC(=NCCSCc1csc(N=C(N)N)n1)NC#N` the selectivity index was 1 (Marburg virus; pseudovirus entry; A549; relative to: CC50 over IC50).
The EC50 of `CN(C)CCC=C1c2ccccc2OCc2c1oc1ccccc21` is reported as 18.2 µM (SARS-CoV-2; viral replication, GFP plate reader screen; BetaCov/Belgium/GHB-03021/2020; cell-based).
`COc1ccc(C[C@@H]2c3cc(Oc4cc(C[C@@H]5c6cc(O)c(OC)cc6CCN5C)ccc4O)c(OC)cc3CCN2C)cc1` has a CPE inhibition of 0% (SARS-CoV-2; viral replication; Vero E6; 12.5 µM).
`CN1CCC(c2cc3cc(Cl)ccc3o2)CC1` has an EC50 of over 100 µM (SARS-CoV-2; viral replication, high-content imaging screen; BetaCov/Belgium/GHB-03021/2020; cell-based).
The remaining activity of `Cc1nc(N(C)Cc2cc(-c3ccccc3)on2)c2cccnc2n1` is reported as 51% (Lassa mammarenavirus; viral replication; Huh-7; 10 µM, 72 h).
`CN1CCC(OC(=O)C(Oc2ccc(Cl)cc2)Oc2ccc(Cl)cc2)CC1` has an EC50 of over 100 µM (SARS-CoV-2; viral replication, GFP plate reader screen; cell-based).
For `COc1ccc(Nc2cc(C(=O)NCCCN3CCN(c4ccc(OC)cc4)CC3)c3ccccc3n2)cc1`, the maximum response was 46.5% (SARS-CoV-2; cytopathic effect; USA_WA1/2020; round 2, 5-point).
For `O=C(Nc1ccc(N2CCCN(C(=O)c3cnccn3)CC2)nc1)c1ccc(Br)cc1`, the IC90 was 3.88 µM (Mycobacterium tuberculosis; bacterial growth; H37Ra-lux; 168 h).
`C=C[C@@](C)(/C=C/c1ccc(O)cc1)CCC=C(C)C` has an inhibition of 0% (Severe acute respiratory syndrome coronavirus 2; cytopathic effect, inhibitor; Vero C1008; 6.25 µM).
`CN(C)C1CCCN(C(=O)c2ccc3cc[nH]c3c2)CC1` (stereo not drawn) gave a remaining activity of 30% (Lassa mammarenavirus; viral replication; Huh-7; 10 µM, 72 h).
`O=C(Nc1ccc(N2CCN(C(=O)c3cnccn3)CC2)nc1)c1ccccc1` gave an IC90 of 3.73 µM (Mycobacterium tuberculosis; bacterial growth; H37Ra-lux; 168 h).
With `Cc1ccccc1CN1CCN(CCOC(c2ccccc2)c2ccccc2Cl)CC1` (stereo not drawn) the EC50 was over 25.1 µM (SARS-CoV-2; viral replication, high-content imaging screen; cell-based).
The IC90 of `O=C(Nc1ccc(N2CCCN(C(=O)c3cnccn3)CC2)nc1)c1ccc(Cl)cc1Cl` is reported as over 64 µM (Mycobacterium tuberculosis; bacterial growth; H37Ra-lux; 168 h).
`COc1ccc2c(Sc3ccccc3)c(C(=O)NCCCN3CCCCC3)[nH]c2c1` has an efficacy of 91.8% (SARS-CoV-2; cytopathic effect; USA_WA1/2020; round 2, 5-point).

A few entries again:
`O=C(Nc1ccc(N2CCN(C(=O)c3cnccn3)CC2)nc1)c1ccccc1` gave an IC90 of 3.73 µM (Mycobacterium tuberculosis; bacterial growth; H37Ra-lux; 168 h).
The inhibition of `NCC1CCOC2(CCN(C(=O)C3(c4ccccc4)CCCC3)CC2)C1` (stereo not drawn) is reported as 40% (Venezuelan equine encephalitis virus; viral replication; 40 µM).
The MIC90 of `CCCCCCCCCCCCCCNC(=O)CP(=O)(O)O` is reported as 6.25 µg/mL (≈ 18.6 µM) (Bacillus anthracis; Ames/IA).
For `O=[N+]([O-])c1ccc(C2=[N+]([O-])c3ccccc3N3CCN=C23)cc1`, the MIC90 was 0.125 µg/mL (≈ 0.405 µM) (Clostridium perfringens).
The remaining activity of `CCCc1cnc(C)nc1N1C[C@@H]2NC(=O)CN(CCOC)C(=O)CCc3ccc(OC)c(c3)Oc3cccc(c3)CO[C@H]2C1` is reported as 51% (Lassa mammarenavirus; viral replication; Huh-7; 10 µM, 72 h).
With `O=C(NCC1CCOC2(CCN(C(=O)C3(c4ccccc4)CCCC3)CC2)C1)C1CC1` (stereo not drawn) the EC50 was over 39.8 µM (Venezuelan equine encephalitis virus; viral replication).
`(S)-(+)-niguldipine hydrochloride` has a maximal inhibition of 92% (Ebola virus; virus-like particle entry; HeLa; concentration not given).
`CNC(=O)[C@@H](NC(=O)[C@H](CC(C)C)[C@H](O)C(=O)NO)C(C)(C)C` gave a viability difference of -17.8% (Daboia russelii; C2C12; 100 µM, together with: Daboia russelii venom RJ; relative to: venom alone).
